# Assay results of several laboratories.
# Numbered parts are unrelated; each lists some results of a single study. Positions count from the first letter of the parent shown.

# Series 1
# Target: CCNE2, cyclin fold, Cln2 fusion (human)
# Technique: yeast growth competition, sequencing
# Matrix: yeast
# Setting: weak parent motif
# Relative to: not given
# Direction: higher = stronger binding
# Starting sequence: CDC6 docking peptide (human); TLKGRRLVFDNQL; partner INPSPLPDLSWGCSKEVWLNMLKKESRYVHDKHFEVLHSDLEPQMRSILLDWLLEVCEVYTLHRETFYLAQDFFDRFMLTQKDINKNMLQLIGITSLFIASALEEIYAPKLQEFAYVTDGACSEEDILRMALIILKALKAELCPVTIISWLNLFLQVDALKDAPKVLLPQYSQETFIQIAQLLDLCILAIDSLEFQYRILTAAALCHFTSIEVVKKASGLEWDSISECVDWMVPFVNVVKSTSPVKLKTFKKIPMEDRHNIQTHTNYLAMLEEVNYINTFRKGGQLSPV
Variant,normalised enrichment score
TLKGGRLVFDNQL [R5G],0.863
TLKGRRLVFCNQL [D10C],1.11
TLKHRRLVFDNQL [G4H],0.362
TLKPRRLVFDNQL [G4P],1.48
TLKGRHLVFDNQL [R6H],-0.758
TLKGRRLVFDNQV [L13V],-0.204
TLKGRRLFFDNQL [V8F],0.0856
TLKGRRLSFDNQL [V8S],0.298
TLKGHRLVFDNQL [R5H],-0.349
TLKGRRFVFDNQL [L7F],-0.0611
TLKGRRLVKDNQL [F9K],1.73
TLKGRWLVFDNQL [R6W],-0.255
THKGRRLVFDNQL [L2H],0.0673
TLIGRRLVFDNQL [K3I],1.26
TLKGRRLVFDVQL [N11V],0.148
TLKGRRLVFDNIL [Q12I],0.582
TLKGRRTVFDNQL [L7T],0.285
MLKGRRLVFDNQL [T1M],-0.00485
TLKGRRSVFDNQL [L7S],0.183
TLKGRPLVFDNQL [R6P],-0.28
TLKGLRLVFDNQL [R5L],-0.0883
TLKGCRLVFDNQL [R5C],-0.0259
TLKGRRLVFDNQC [L13C],0.863
TLKGRKLVFDNQL [R6K],0.206
TLKGRRLVFDNQH [L13H],0.119

# Series 2
# Target: RNA binding protein fox-1 homolog 2, RRM domain, GST-SBP tag (RBFOX2, Homo sapiens, UniProt O43251-10, residues 100-194)
# Technique: RNA Bind-n-Seq
# Molecule type: RNA
# Matrix: in vitro
# Concentration: 365 nM
# Setting: natural RNA segment, single round, ends assumed
# Relative to: no-protein control
# Direction: higher = stronger binding
# All sequences stand within: GGGAGUUCUACAGUCCGACGAUC … UGGAAUUCUCGGGUGCCAA
# Target sequence (chain): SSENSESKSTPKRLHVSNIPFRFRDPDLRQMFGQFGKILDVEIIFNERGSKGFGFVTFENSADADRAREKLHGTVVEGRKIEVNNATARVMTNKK
Sequence,RBNS enrichment (R)
GAACAUCAAGAUACCUUUGCGUGGAUCAAGCUUGUGUACUUGACCGUUUUUAUAUUACUUUUGUAAAUAUUCUUGUCCACAUUCUACUUCAGCUUUGGAUGUGGUUACCG,0.424
CGAUGGCCCCGCUGUGGUCCCCUCUCUGUCCCUCCAUCUGUAUGUGUUCUGUGUCCCUUGCAUGUGUGCGUGUUAGAGUGAGCGCGUAUGCAUCAACUCAUUGGGCUCUU,1.3
CGUGGCCCUGCAUUUCUGGGUAGGGCUGGCAAUGGUUGCCUUAACCCUGGCUCCUGGCCCGAGCCUGGGGCUCCCUGGGCCCUGCCCCACCCACCUUAUCCUCCCACCCC,0.393
UGCUGGACUAGCUUAAGACCAAUGCAGUAGCUUAUUUCCAAGCCUUGCAAAGUAUAUAAUAUCUAAGAGGAAAGGUUUUGUCAUCCCAGCGUUGUCCACUUUGUGGGGCU,0.436
GGCUGCCCAGGUGGCUGCACUCCGGGGAUCACGUUUCAGUACUGAGUUCCUUCACGCACUUGGUUCACCACCAUCACUCUUGAGUUUUGGACAAAAGAGGUGGGUAUGCC,0.383
UCUGAAGUGCUGGGAGCAUAGGAAGAUUGACAUUCUGUGUGACUUGUGAGGCUCAGAUGCUGAUACCAGUAACAUUCAAAAUUAACUUCACGCAUUGAAUACAUUUAAAC,2.67
CAGAGGAUUAUUUUCCUGCCUUGGCAGAGGAGGAGGAGUCAAGGGAGCAGGGCAGCUCUACCAGGCAAGGUGUUUCCCCAGCAUAGGCGCAGACAGUUGGGACGAAACUU,0.663
AGAAAAAAUGUCCCUUACAGGAACCGGCAGCAGCUAGGCAGUCACCGGCCCGCCUCCAUCCAAAAUCACGCUCGCGUGCUUCGGAAGCAUCCGGGUCACUCCUUCUCCGC,0.265
GUAAAUGUAUAAAUGUAUAUUGUGUUGUAUGUAUAUUUUAUAUUUAUAAUAAAUGCAAACUAAUUCUGGCCGUGUUCUAAGGUUUUUUUGUUUUUUGUUUUUGUCAGAUC,0.98
CAGGUAACAGGAGUACCUUUGUUUUAACAGACAAAAGUAAUCUCCAGGCCUUAGGGACUCAUAAAGAUAUGAGUACAUUGCUUAUUGGAAACUUGUAGGUUCACAUAUUA,0.334
CUUGAAAGGAUUUCCACCAGACUGUCUUGAGUAGUGACUUCUUUGGUGAGGCAAGAAGGAUAUACAUUAUUUUAGAAUCAUUUACUAUUUAAAUGAGACAAUCAUAUUAU,0.45
CCCUCCUGCUCCCCCCGCCCGACUUUGACUCUGAAUCAGCAUUUGGUCCUAUUCAGAGGACUCUUACCACGACGUUUCUGUUCUACACUUGGGUGGAGACCAGUUGACCA,0.534

# Series 3
# Target: Histone acetyltransferase KAT6A, winged helix 2, GST fusion (KAT6A, Homo sapiens, UniProt Q92794, residues 85-181)
# Technique: protein binding microarray
# Molecule type: double-stranded DNA, one strand shown
# Matrix: in vitro
# Concentration: not given
# Setting: 8-mer, flanks averaged, mean of 2 arrays, mostly near background
# Relative to: not given
# Direction: higher = stronger binding
# Residues (chain): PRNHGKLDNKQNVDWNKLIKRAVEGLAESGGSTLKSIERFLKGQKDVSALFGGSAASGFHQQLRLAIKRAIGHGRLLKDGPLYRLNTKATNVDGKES
Sequence,E-score
GGGACAGA,-0.0854
AACGTCAA,-0.0565
CCATCTAC,-0.168
CCATCCGG,0.116
AATTCGTA,0.069
AAAGGTAT,-0.157
CTCGAGAA,0.0485
GCTGCAGA,0.131
TCCAGTCA,-0.224
CGCCACCG,0.0248
GTGTAAAA,0.0268
GCGGGCTA,0.0962
CCGACGCG,0.291
AGGATCTA,-0.125
ATTACCTC,-0.0352
TAAATTAA,0.0988
TGACTCAA,-0.00466
AATATTAT,0.0602
AACCATTA,-0.0286

# Series 4
# Target: DBP, bZIP domain (human)
# Technique: DHFR protein complementation
# Matrix: yeast
# Setting: single substitutions, most at no-binding floor
# Relative to: wild-type JUN-FOS pair
# Direction: higher = stronger binding
# Starting sequence: JUN, bZIP domain (human); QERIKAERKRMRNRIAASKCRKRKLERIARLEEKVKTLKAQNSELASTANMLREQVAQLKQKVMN; partner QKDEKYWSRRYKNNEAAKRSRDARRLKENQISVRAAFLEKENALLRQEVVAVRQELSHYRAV
Variant,binding fitness
V35E,-1.46 natural log
T48H,-1.27 natural log
Q55V,-1.11 natural log
S43E,-1.49 natural log
A40Y,-1.23 natural log
K39R,-1.27 natural log
K34T,-1.3 natural log
L31G,-1.43 natural log
E32W,-1.47 natural log
E33D,-1.49 natural log
L52M,-1.41 natural log
E44N,-1.49 natural log
S47L,-1.53 natural log
Q55R,-1.37 natural log
V35G,-1.52 natural log
S43F,-1.51 natural log
I28G,-1.39 natural log
E44F,-1.51 natural log
A46G,-1.42 natural log
E54I,-1.31 natural log
A40W,-1.5 natural log

# Series 5
# Target: RING finger protein unkempt homolog, zinc fingers 1-6, GST-SBP tag (UNK, Homo sapiens, UniProt Q9C0B0, residues 30-357)
# Technique: RNA Bind-n-Seq
# Molecule type: RNA
# Matrix: in vitro
# Concentration: not given
# Setting: RNA with constant flanks, human-mouse chimeric sites, ends assumed
# Relative to: input RNA pool
# Direction: higher = stronger binding
# All sequences stand within: GGGAGUUCUACAGUCCGACGAUC … CAACAGAGGAUUGAGCAUCA
# Target sequence (chain): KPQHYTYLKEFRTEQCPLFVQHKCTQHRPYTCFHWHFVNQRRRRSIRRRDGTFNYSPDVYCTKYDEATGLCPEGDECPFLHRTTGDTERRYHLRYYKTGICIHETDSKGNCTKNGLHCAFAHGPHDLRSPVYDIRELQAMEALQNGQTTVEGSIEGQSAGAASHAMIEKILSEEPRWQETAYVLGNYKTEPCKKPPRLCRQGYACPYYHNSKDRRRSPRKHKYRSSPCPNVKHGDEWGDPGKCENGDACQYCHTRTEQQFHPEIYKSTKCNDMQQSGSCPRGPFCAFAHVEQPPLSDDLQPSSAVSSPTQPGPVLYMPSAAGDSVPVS
Sequence,bound/input enrichment
CAGCCUCAGAGCCCAGACUUCCUGGAUAUCACCAACCCUAAAGCGGUAUUAGAAAACGCAUUGAGAAACUUCGCCUGUCUGACGACUGGAGAUGUGAUUGCUAUCAACUACAAUGAGAAG,0.34 ratio
UCCCAAAUUAUAAGGCAAGAAGGAGCCUUGAGACAAACACUCCACACACAGGGAAGGCGAUAACAUUGUAAAUUGGUUUACAUUUUUUCCCCCUGUGGAUUUUUCUAGAGGUCAUAGUGC,0.37 ratio
GUAGCUGGGACUACAGAAGAAUGCUGAGUGCUCCGGCCUUGCUGAUGACUUCUGAUGUCCCAGCAAAUGUUGGCAUUGUUGACUGCUGAGAAGAUACUUCUGAGGACCCACGUCUAAGGU,0.0393 ratio
CGCUGGCCCAAGCUGAUGGACUCUGAUGGCCUCCAUCUCUCAGGCACGUGUGCCUUCUCUUAGUCCCUUCUGGGUUGAUGUUAUGAAUCUCAGUACUGUUUGACAGAAGCACCAGCUUUG,0.309 ratio
CUGUGUGUGCUGAAUAAUGAUUUGUGAAAGAAGUUUUUCCAAGCUGUAACCCAUGCUUCCCUUAGAGUUGCUGCAAAAUGUUCUUCCUGAUAUUGAUUUUAUUUGUUAACUGAAGGUCUC,0.555 ratio
GGCCUGGACCUUCCUGGGGCUAGUACAAAUAGCGGCAGUGGAGGCUCGAGAGGAAAGUUUGUUAGUGGAGGCAGUGGUAGAGGCCGUCAUGUACGGUCCUUUACUCGAUAGAUGUGUUCU,0.287 ratio
UUUCUACUGCAGCAAACGAUGCUAAGAAUUAAGGAUCCUAAGAAGUCCCUGGAUUUUUAUACUAGAGUUCUUGGACUGACCCUCCUGCAGAAGCUUGACUUCCCUGCUAUGAAGUUUUCG,0.616 ratio
GAGUCGAGCAAACUUGAAACAAUUCGUUAUCUUGCAGCCUCAGUGUUCACUUGCUUGGCGAUAGCAUAUUGGGAUUUUAGGUUCUGGAAGGAGAACUGACGAUGAUGUCCUGCUGUGUGC,0.3 ratio
GCGGCAGAAUCAUGGAGGACAUAAUGCAGCUCCCCAAAGCGCGCGUCAACGCCAGCAUGUUACCACAAUUCAUCGACAAGCCUGUCUGCUUCGUGGGGAAGCUGGAAAAGAUUCAUCCCA,0.125 ratio
GCUCUUGGGAAUGUAAUCAGCGCCUUGGGGGACAAGAGCAAGAGAGCCACACAUGUCCCUUACAGAGACUCUAAGCUGACAAGACUCUUGCAGGAUUCCCUUGGGGGUAAUAGCCAAACC,0.133 ratio
GAUCAUGAACCACCAUCCAGAAAUGAAAUGAGAUUACCCAGACGAGCCAAAACAGCUGCGCUACAGAAAAGUAAACUUAACCUUGCAGAGUUCCUUAAAUGAAGAUCAAGUUAAGAGAGC,0.367 ratio
